# Assay results from different studies.
# Each line is one published result; not all experiments were run side by side. ± marks the error that the study gave.
# B1: UGT1A9 (Homo sapiens, UniProt O60656); chain GKLLVVPMDGSHWFTMRSVVEKLILRGHEVVVVMPEVSWQLGRSLNCTVKTYSTSYTLEDLDREFKAFAHAQWKAQVRSIYSLLMGSYNDIFDLFFSNCRSLFKDKKLVEYLKESSFDAVFLDPFDNCGLIVAKYFSLPSVVFARGILCHYLEEGAQCPAPLSYVPRILLGFSDAMTFKERVRNHIMHLEEHLLCHRFFKNALEIASEILQTPVTEYDLYSHTSIWLLRTDFVLDYPKPVMPNMIFIGGINCHQGKPLPMEFEAYINASGEHGIVVFSLGSMVSEIPEKKAMAIADALGKIPQTVLWRYTGTRPSNLANNTILVKWLPQNDLLGHPMTRAFITHAGSHGVYESICNGVPMVMMPLFGDQMDNAKRMETKGAGVTLNVLEMTSEDLENALKAVINDKSYKENIMRLSSLHKDRPVEPLDLAVFWVEFVMRHKGAPHLRPAAHDLTWYQYHSLDVIGFLLAVVLTVAFITFKCCAYGYRKCLGKKGRVKKAHKSKTH
Molecule,tested on,assay,test system,conditions,how to read,quantity,value
CCCC[C@@H]1NC(=O)[C@@H](NC(=O)[C@H](CCC(=O)O)NC(=O)CNC(=O)CN2CCN(CC(=O)O)CCN(CC(=O)O)CCN(CC(=O)O)CC2)CCCCNC(=O)C[C@@H](C(N)=O)NC(=O)[C@H](C(C)C)NC(=O)[C@@H]2CCCN2C(=O)[C@H](CCCNC(=N)N)NC(=O)CNC(=O)[C@H](Cc2c[nH]c3ccccc23)NC(=O)[C@H](CCCNC(=N)N)NC(=O)[C@@H](Cc2ccccc2)NC(=O)[C@H](Cc2c[nH]cn2)NC(=O)[C@H](CCC(=O)O)NC1=O [indium-111 labelled],,,"normal C57 mice, heart","intravenous, 0.037 MBq, 24 h",,tissue uptake,0.05 ± 0.04 %ID/g
GAGUUGAGUUGAGUUGAGUUGAGUUGAGUUGAGUUGAGUUGAGUUGAGUUGAGUU (ssRNA; single strand),"mtrB full length assumed T30Q (Bacillus subtilis, UniProt P19466)",filter binding,,added: no tryptophan,,Kd,620 ± 50 nM
Cc1nc2cccc(OCC(C)(C)C(=O)NC(C)C)c2c(N)c1C(=O)O,,,"female Sprague-Dawley rat, plasma","dietary, 30 mg/kg/day, day 90",,Tmax,3 h
O=C(/C=C/c1ccc(O)c(O)c1)O[C@H](Cc1ccc(O)c(O)c1)C(=O)O,,UPLC-MS/MS,"Wistar rat, microcirculation dysfunction model, plasma","oral, 100 mg/kg Salvia miltiorrhiza stem-leaf extract FS",,CL/F,2040 ± 173 mL/min/kg
C=CC(=O)N1CCC([C@@H]2CCNc3c(C(N)=O)c(-c4ccc(Oc5ccccc5)cc4)nn32)CC1,,,"Chinese patients, plasma","oral, 320 mg once daily, week 2 day 1, steady state",,AUC(0-8h),1150 ng·h/mL
insulin lispro,,,"human, plasma",subcutaneous pump,,tmax,1.05 h
CC1=C2C[C@H]3[C@@H](CC[C@@H]4C[C@H](NS(C)(=O)=O)CC[C@@]43C)[C@@H]2CC[C@@]2(C1)O[C@@H]1C[C@H](C)CN[C@H]1[C@H]2C,,,"patients, plasma","oral, 60 mg single, day -7, cycle 1",,Tmax,4 h
O=C(O)C(F)(F)c1cc(F)ccc1Nc1c(Cl)cc(F)cc1Cl,,glucuronidation,human liver microsomes,"30 min, added: UDPGA",,remaining compound,96 ± 16%
O=C(O)[C@H](c1ccccc1Cl)N1CCc2sccc2C1,,HPLC-MS/MS,feline EDTA plasma,"24 h, 4 °C, storage stability",,deviation from nominal,-1%
CNC(=O)c1cc(Oc2ccc(NC(=O)Nc3ccc(Cl)c(C(F)(F)F)c3)cc2)ccn1,,,"nude mouse, MHCC97H tumour xenograft, subcutaneous tumour","intratumoral, PXR siRNA",,half-life,42.1 ± 2.79 h
Cc1cc(C)c2c(c1)[C@@H](N(Cc1cc(C(F)(F)F)cc(C(F)(F)F)c1)c1nnn(C)n1)CCCN2C[C@H]1CC[C@H](C(=O)O)CC1,,LC-MS/MS,"human, plasma","oral, 100 mg once daily, steady state",,t1/2,44 h
CS/C(S)=N/CCCC[S+](C)[O-] (racemic),,"RT-PCR, refers to: Cyp2c6","rat, colon","oral gavage, 200 mg/kg, dosed for four days",relative to: vehicle,mRNA fold change,0.198
B1 (UGT1A9),COc1ccc(-c2oc3cc(OC)ccc3c(=O)c2O)cc1,steady-state kinetics,,"pH 7.4, 37 °C",,Vmax,0.0087 µmol/min/mg
NC(=O)N1CCC(CC(=O)N2CCC([C@H]3c4ncc(Br)cc4CCc4cc(Cl)cc(Br)c43)CC2)CC1,,,"human, plasma","oral, 200 mg twice daily, cycle 1 day 15, added: gemcitabine 600 mg/m2",,AUC(tau),16800 ng·h/mL
des-acyl ghrelin (human),,,"mouse, wild type, hippocampus","intravenous, 10 min",,brain/serum ratio,6.92 µL/g
CCCC[C@H](NC(C)=O)C(=O)N[C@H]1CCC(=O)NC[C@@H](C(=O)N[C@@H](Cc2c[nH]c3ccccc23)C(N)=O)NC(=O)[C@H](CCCNC(=N)N)NC(=O)[C@@H](Cc2ccccc2)NC(=O)[C@H](Cc2c[nH]cn2)NC1=O,,,"CD Sprague Dawley rat, male, plasma","subcutaneous, 1.0 mg/kg daily, day 1",,CL/F,15.4 mL/min/kg
CC(C)NC[C@@H](C(=O)N1CCN(c2ncnc3c2[C@H](C)C[C@H]3O)CC1)c1ccc(Cl)cc1,,,"human, Moderate hepatic function (Child-Pugh), plasma","oral, 100 mg single dose, arithmetic mean",,t1/2,83.1 h
SQSVLYS,,,"peptide, human polyclonal IgM RF LOP","concentration not given, 5 µg/mL mAb II-481 coated, added: RF at 50% max binding concentration",,inhibition,18%
O=C(Nc1nc2cccc(-c3ccc(CN4CCS(=O)(=O)CC4)cc3)n2n1)C1CC1,,,human male,"oral, 200 mg once daily, steady state, mean",,terminal half-life,5.17 h
O=C(O)C[C@H](O)C[C@H](O)/C=C/c1c(C2CC2)nc2ccccc2c1-c1ccc(F)cc1,,,"healthy Chinese male volunteers, plasma","oral, 2 mg once daily, multiple dose",,volume of distribution,165 L
Cc1cc(Nc2cc3ncccc3c(N[C@@H]3C[C@H]4CC[C@@H](C3)N4CCC#N)n2)n[nH]1,,,"Sprague-Dawley rat, male, plasma","oral, 100 mg/kg/day, last day of 4 weeks",,Cmax,9.96 ng/mL
C=C(C)[C@@H]1CC[C@]2(NCCN3CCS(=O)(=O)CC3)CC[C@]3(C)[C@H](CC[C@@H]4[C@@]5(C)CC=C(C6=CC[C@@](CF)(C(=O)O)CC6)C(C)(C)[C@@H]5CC[C@]43C)[C@@H]12,,,healthy human,"oral, 10 mg, single ascending dose, geometric mean",,t1/2,25.3 h
CC(=O)N[C@@H](Cc1ccccc1)C(=O)N[C@H]1CCCNC(=O)[C@H](CCCNC(=N)N)NC(=O)[C@H](Cc2c[nH]c3ccccc23)NC(=O)[C@@H](CC2CCCCC2)NC(=O)[C@@H]2CCCN2C1=O,,,"C57BL/6J mice, plasma","subcutaneous, 1 mg/kg",,absorption half-life,0.305 h
CNC(=O)c1ccc(-c2cnc3ncc(Cc4ccc5ncccc5c4)n3n2)cc1F,,,human mild hepatic impairment,"oral, 200 mg single dose, adjusted geometric mean",,AUC(0-inf),4790 ng·h/mL
Cn1c(-c2ccc(C(N)=O)cc2F)nnc1C(C)(C)Oc1c(F)cc(Cl)cc1F,,,"young Japanese adults, plasma","oral, 10 mg single dose, day 1, high-dose multiple-dose study",,Tmax range over subjects,1.5 to 4 h
COC(=O)c1ccc2c(c1)NC(=O)/C2=C(\Nc1ccc(N(C)C(=O)CN2CCN(C)CC2)cc1)c1ccccc1,,,"human, plasma","oral, 200 mg twice daily",,AUC(tau) at steady state,6170 ng·h/mL
CS(=O)(=O)n1cc2c(n1)CN([C@H]1CO[C@H](c3cc(F)ccc3F)[C@@H](N)C1)C2,,,"healthy male human, plasma","oral, 25 mg once weekly, day 1, fasted, geometric mean",,concentration at 168 h,0.0188 µM
Cc1cccc(C)c1OCC(=O)N[C@@H](Cc1ccccc1)[C@@H](O)C[C@H](Cc1ccccc1)NC(=O)[C@H](C(C)C)N1CCCNC1=O,,median,"HIV patients without HCV, plasma","oral, lopinavir/ritonavir twice daily",,fraction unbound,0.0097
CCCCc1nc(Cl)c(CO)n1Cc1ccc(-c2ccccc2-c2nn[nH]n2)cc1,,rapid equilibrium dialysis,pooled human plasma,"4 h, added: cassette with erlotinib, Flx",,fraction unbound,0.01
HIWWNDN,,,"peptide, human polyclonal IgM RF ABR","concentration not given, 5 µg/mL mAb II-481 coated, added: RF at 50% max binding concentration",,inhibition,80%
CCCCOCCOc1ccc(-c2ccc3c(c2)/C=C(/C(=O)Nc2ccc([S@@+]([O-])Cc4cncn4CCC)cc2)CCCN3CC(C)C)cc1,,,"human, controls matched to moderate impairment","oral, 150 mg",,effective half-life,15 h
O=C(N[C@@H](Cn1ccnc1)c1ccc(Cl)cc1Cl)c1ccc(-c2nnc(-c3ccc(F)c(F)c3)o2)cc1,,,"Balb/c mouse, brain","oral, 25 mg/kg, 4 h",,brain concentration,8 ± 4 µM
CCCOc1ccc([C@H]2CNC(=O)N2c2ccc3[nH]cnc3c2)cc1,,,"human volunteers fasted, plasma","oral solution, 10 mg single dose, day 1, geometric mean",,effective half-life,2.05 h
CCOc1ccc(NC(=S)N(CCO)Cc2cc3cc(C)cc(C)c3[nH]c2=O)cc1,,,"C57BL/6J mouse, plasma","intravenous, 3 mg/kg, added: ABT 50 mg/kg oral pretreatment 2 h before",,half-life,1.91 h
acyl ghrelin (human),,,"mouse, wild type, hippocampus","intravenous, 10 min",,brain/serum ratio,4.19 µL/g
CC(=O)N[C@@H](CCCNC(=N)N)C(=O)N[C@@H](C)C(=O)N[C@@H](CC(=O)O)C(=O)N[C@@H](C)C(=O)N[C@@H](CCCNC(=N)N)C(=O)N[C@@H](C)C(=O)N[C@@H](CC(=O)O)C(=O)N[C@@H](C)C(=O)N[C@@H](CCCNC(=N)N)C(=O)N[C@@H](C)C(=O)N[C@@H](CC(=O)O)C(=O)N[C@@H](C)C(=O)N[C@@H](CCCNC(=N)N)C(=O)N[C@@H](C)C(=O)N[C@@H](CC(=O)O)C(=O)N[C@@H](C)C(N)=O,,rotational rheometry,2% w/v aqueous solution,shear rate range 1-1000 s^-1,,viscosity,1820 ± 57.6 Pa·s
O=C(c1cccnc1-c1ccncc1)N1CCC(O)(Cc2ccccc2)CC1,,,"healthy human, urine","oral, 300 mg once daily, day 14, arithmetic mean",,renal clearance,3.67 mL/min
NC(=O)CN[C@@H]1CCCNC1,,capillary electrophoresis-MS,water,,,pKa1,5.13
CC(C)Cc1nn(C)c(=O)c2c(SCCCO)n(Cc3ccc(C#CCCCOc4ccc(C[C@H](N)C(=O)O)cc4)c4ccccc34)cc12,,,"NOD/SCID mouse, tumour-bearing, tumour","concentration not given, 24 h, range",,tumour concentration,210 to 460 nM

# Some of these lines once more:
Molecule,tested on,assay,test system,conditions,how to read,quantity,value
C=C(C)[C@@H]1CC[C@]2(NCCN3CCS(=O)(=O)CC3)CC[C@]3(C)[C@H](CC[C@@H]4[C@@]5(C)CC=C(C6=CC[C@@](CF)(C(=O)O)CC6)C(C)(C)[C@@H]5CC[C@]43C)[C@@H]12,,,healthy human,"oral, 10 mg, single ascending dose, geometric mean",,t1/2,25.3 h
CC(C)Cc1nn(C)c(=O)c2c(SCCCO)n(Cc3ccc(C#CCCCOc4ccc(C[C@H](N)C(=O)O)cc4)c4ccccc34)cc12,,,"NOD/SCID mouse, tumour-bearing, tumour","concentration not given, 24 h, range",,tumour concentration,210 to 460 nM
O=C(O)[C@H](c1ccccc1Cl)N1CCc2sccc2C1,,HPLC-MS/MS,feline EDTA plasma,"24 h, 4 °C, storage stability",,deviation from nominal,-1%
O=C(N[C@@H](Cn1ccnc1)c1ccc(Cl)cc1Cl)c1ccc(-c2nnc(-c3ccc(F)c(F)c3)o2)cc1,,,"Balb/c mouse, brain","oral, 25 mg/kg, 4 h",,brain concentration,8 ± 4 µM
CNC(=O)c1ccc(-c2cnc3ncc(Cc4ccc5ncccc5c4)n3n2)cc1F,,,human mild hepatic impairment,"oral, 200 mg single dose, adjusted geometric mean",,AUC(0-inf),4790 ng·h/mL
